Published values from different studies.
A part holds a random share of what one study measured.
UniProt O75582, sequence (whole entry, looked up): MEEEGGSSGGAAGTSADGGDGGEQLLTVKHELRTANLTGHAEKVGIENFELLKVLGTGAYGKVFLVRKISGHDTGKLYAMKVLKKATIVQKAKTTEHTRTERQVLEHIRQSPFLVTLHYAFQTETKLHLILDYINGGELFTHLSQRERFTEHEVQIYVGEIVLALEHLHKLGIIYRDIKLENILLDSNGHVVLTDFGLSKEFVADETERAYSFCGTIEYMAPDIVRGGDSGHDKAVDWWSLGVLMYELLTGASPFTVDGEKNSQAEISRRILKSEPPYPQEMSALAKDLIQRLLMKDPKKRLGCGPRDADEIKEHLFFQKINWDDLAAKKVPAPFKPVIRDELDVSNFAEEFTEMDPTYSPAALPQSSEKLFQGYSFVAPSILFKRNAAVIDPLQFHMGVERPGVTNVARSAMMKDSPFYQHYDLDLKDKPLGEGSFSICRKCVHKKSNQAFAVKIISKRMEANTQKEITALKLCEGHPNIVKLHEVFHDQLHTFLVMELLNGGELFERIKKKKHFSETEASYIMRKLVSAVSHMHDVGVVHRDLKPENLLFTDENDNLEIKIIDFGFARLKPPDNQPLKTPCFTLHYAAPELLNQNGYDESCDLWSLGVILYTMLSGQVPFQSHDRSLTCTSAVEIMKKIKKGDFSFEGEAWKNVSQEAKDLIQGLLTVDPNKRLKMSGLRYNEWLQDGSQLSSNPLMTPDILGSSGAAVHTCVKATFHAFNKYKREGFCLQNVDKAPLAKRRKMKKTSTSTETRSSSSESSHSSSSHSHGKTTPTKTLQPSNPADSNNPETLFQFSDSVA
UniProt Q04771, sequence (whole entry, looked up): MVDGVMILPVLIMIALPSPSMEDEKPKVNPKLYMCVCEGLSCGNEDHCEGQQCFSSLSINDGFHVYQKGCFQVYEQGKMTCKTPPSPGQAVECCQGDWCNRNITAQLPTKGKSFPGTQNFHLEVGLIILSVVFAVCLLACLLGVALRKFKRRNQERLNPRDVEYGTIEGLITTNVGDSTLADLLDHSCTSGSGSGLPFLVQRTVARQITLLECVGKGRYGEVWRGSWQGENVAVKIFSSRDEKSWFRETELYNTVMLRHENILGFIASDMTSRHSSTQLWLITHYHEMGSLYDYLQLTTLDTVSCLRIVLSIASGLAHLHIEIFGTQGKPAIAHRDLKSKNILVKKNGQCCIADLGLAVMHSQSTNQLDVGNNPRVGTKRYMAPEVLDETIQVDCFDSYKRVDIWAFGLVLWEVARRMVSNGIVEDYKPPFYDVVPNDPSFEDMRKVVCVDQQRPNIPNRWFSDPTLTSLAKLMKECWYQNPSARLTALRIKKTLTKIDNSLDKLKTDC
UniProt P37173, sequence (whole entry, looked up): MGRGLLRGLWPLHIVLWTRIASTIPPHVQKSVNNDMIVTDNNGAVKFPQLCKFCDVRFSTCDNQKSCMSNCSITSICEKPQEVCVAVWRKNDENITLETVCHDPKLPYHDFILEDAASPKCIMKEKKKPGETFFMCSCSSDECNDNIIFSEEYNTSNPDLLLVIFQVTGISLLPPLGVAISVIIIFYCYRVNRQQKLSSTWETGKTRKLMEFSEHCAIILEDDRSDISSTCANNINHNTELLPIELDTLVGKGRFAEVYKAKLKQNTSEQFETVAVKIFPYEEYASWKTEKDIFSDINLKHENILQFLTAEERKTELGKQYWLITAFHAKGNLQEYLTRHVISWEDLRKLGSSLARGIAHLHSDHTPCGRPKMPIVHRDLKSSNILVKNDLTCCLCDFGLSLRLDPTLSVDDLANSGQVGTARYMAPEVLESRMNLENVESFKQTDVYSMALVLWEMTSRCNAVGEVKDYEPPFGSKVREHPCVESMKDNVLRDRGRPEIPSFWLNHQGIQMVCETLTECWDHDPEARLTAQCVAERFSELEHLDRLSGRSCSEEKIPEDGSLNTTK
UniProt Q15418, sequence (whole entry, looked up): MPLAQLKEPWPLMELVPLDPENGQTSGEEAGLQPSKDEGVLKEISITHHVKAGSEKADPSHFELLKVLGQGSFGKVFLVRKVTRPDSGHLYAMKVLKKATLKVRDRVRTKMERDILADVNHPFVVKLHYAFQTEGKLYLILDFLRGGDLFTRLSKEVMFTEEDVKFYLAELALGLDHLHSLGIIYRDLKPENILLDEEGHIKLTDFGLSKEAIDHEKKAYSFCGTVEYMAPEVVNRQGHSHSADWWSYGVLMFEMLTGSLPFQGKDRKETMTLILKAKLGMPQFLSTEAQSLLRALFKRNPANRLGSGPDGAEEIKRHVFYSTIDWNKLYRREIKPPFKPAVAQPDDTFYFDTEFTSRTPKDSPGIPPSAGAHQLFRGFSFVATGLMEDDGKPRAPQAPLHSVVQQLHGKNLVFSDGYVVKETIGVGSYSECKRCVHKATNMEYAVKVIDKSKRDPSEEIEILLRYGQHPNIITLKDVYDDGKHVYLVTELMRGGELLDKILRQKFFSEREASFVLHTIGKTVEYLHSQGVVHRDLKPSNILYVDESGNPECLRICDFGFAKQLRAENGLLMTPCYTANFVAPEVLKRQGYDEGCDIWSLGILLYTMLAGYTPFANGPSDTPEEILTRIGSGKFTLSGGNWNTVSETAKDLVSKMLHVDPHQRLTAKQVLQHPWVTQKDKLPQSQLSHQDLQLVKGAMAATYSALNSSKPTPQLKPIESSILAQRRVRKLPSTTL
UniProt Q9Y2H9, sequence (whole entry, looked up): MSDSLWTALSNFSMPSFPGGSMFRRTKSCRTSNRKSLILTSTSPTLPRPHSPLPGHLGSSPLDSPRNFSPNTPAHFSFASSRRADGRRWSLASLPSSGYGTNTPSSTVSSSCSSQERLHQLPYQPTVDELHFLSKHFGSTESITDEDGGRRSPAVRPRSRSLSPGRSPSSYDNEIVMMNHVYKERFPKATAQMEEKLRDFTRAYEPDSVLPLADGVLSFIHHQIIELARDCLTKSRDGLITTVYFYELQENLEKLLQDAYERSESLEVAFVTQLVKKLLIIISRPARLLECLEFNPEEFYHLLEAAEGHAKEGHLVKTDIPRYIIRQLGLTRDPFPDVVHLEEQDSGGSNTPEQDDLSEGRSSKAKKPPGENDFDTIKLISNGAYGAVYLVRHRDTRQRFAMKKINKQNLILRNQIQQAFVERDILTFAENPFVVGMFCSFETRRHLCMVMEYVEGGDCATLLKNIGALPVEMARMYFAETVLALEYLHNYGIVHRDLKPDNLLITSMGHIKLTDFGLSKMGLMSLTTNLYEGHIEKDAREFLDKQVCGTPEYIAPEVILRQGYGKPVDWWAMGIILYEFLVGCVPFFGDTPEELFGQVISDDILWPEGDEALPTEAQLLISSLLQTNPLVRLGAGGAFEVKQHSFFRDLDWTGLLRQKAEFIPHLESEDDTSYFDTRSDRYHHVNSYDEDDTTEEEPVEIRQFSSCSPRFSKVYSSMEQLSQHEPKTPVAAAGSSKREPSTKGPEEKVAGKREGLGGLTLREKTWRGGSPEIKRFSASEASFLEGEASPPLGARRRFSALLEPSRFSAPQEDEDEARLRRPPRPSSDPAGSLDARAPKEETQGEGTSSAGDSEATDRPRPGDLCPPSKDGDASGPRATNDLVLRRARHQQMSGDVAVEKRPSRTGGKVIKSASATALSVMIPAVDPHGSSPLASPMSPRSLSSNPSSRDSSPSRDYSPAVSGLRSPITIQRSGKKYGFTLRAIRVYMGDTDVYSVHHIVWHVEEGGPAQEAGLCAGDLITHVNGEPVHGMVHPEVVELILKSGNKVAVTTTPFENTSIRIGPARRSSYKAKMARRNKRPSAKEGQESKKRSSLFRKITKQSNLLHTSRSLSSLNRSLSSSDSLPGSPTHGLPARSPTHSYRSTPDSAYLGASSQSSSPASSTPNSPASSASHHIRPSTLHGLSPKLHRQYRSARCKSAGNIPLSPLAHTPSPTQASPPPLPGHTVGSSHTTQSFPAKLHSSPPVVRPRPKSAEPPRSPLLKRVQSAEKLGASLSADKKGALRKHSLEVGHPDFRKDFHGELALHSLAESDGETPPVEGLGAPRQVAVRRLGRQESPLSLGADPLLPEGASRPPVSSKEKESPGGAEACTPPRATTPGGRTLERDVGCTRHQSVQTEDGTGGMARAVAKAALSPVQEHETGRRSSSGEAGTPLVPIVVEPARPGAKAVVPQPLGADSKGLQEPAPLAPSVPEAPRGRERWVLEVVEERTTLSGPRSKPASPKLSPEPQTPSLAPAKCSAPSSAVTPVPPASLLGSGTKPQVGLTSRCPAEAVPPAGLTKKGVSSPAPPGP

Study 1
Target: Beta-adrenergic receptor kinase 1 (GRK2, Homo sapiens, UniProt P25098)
UniProt P25098, sequence (whole entry, looked up): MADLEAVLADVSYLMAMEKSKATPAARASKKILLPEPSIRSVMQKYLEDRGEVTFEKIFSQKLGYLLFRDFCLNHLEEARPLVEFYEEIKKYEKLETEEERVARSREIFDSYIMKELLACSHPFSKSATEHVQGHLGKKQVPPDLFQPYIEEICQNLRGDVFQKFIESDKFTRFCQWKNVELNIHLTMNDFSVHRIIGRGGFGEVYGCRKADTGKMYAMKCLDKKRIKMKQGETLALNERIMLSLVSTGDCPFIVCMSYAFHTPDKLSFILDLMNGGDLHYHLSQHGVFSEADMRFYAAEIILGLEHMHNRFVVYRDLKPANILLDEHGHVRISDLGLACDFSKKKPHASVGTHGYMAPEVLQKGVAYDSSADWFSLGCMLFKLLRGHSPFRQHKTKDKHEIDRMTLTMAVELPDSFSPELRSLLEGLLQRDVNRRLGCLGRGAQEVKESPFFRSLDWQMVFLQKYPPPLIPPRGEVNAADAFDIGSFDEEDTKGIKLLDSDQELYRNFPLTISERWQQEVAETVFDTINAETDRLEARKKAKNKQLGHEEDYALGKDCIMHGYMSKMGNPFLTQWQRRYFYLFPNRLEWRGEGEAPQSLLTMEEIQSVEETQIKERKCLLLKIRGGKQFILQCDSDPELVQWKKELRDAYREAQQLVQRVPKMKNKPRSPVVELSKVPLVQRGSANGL
Effect on: enzyme activity
Mode: inhibitor
Concentration: 0.5 µM
Reference: control
`CCN(CC)C(=O)c1ccc(Nc2nc(OCC3CCCCC3)c3[nH]cnc3n2)cc1` gave a remaining activity of 92.6%.
The remaining activity of `c1ccc(-c2[nH]ncc2-c2ccnc3ccccc23)nc1` is reported as 101%.
With `Ic1cccc(CSc2nnc(-c3ccncc3)o2)c1` the remaining activity was 99.9%.
The remaining activity of `O=C1c2ccccc2-c2n[nH]c3cccc1c23` is reported as 99.4%.
`COc1cc2c(cc1OC)-c1[nH]nc(Nc3cccc(F)c3)c1C2` has a remaining activity of 93%.
`O=C1C(Cl)=C(N2C(=O)CCC2=O)C(=O)c2ccccc21` gave a remaining activity of 105%.
`Cc1cn(-c2cc(NC(=O)c3ccc(C)c(Nc4nccc(-c5cccnc5)n4)c3)cc(C(F)(F)F)c2)cn1` gave a remaining activity of 95.8%.
`COc1cc2ncnc(Nc3ccc(O)c(Br)c3)c2cc1OC` gave a remaining activity of 99%.
For `CN(C)C[C@H]1CCn2c(c(C3=C(c4cn(C)c5ccccc45)C(=O)NC3=O)c3ccccc32)C1`, the remaining activity was 103%.
For `O=C(NC(NC(=S)Nc1ccc(F)c([N+](=O)[O-])c1)C(Cl)(Cl)Cl)C(c1ccccc1)c1ccccc1` (stereo not drawn), the remaining activity was 79.5%.
For `C[C@@H]1CCN(C(=O)CC#N)C[C@@H]1N(C)c1ncnc2[nH]ccc12`, the remaining activity was 95.3%.
`CN([C@@H](Cc1ccc(OS(=O)(=O)c2cccc3cnccc23)cc1)C(=O)N1CCN(c2ccccc2)CC1)S(=O)(=O)c1cccc2cnccc12` gave a remaining activity of 97.5%.

Study 2
SMILES: CN(C)C(=O)Cn1cc(-c2nc([C@@](C)(c3ccc(-c4cnc(N)nc4)cc3)C3CC3)no2)cn1
Effect on: cell-free assay
Technique: competition with immobilised ligand
Concentration: 1 µM
The remaining binding was 100% (MARK2 (Homo sapiens, UniProt Q7KZI7)).
For TSSK1B (Homo sapiens, UniProt Q9BXA7): remaining binding read 100%.
For TGFBR2 (Homo sapiens, UniProt P37173): remaining binding read 88%.
The remaining binding was 93% (Ribosomal protein S6 kinase alpha-5, N-terminal kinase domain (RPS6KA5, Homo sapiens, UniProt O75582)).
The remaining binding was 97% (MAST1 (Homo sapiens, UniProt Q9Y2H9)).
For MAPK12 (Homo sapiens, UniProt P53778): remaining binding read 94%.
For MST1R (Homo sapiens, UniProt Q04912): remaining binding read 79%.
Ribosomal protein S6 kinase alpha-1, C-terminal kinase domain (RPS6KA1, Homo sapiens, UniProt Q15418) — remaining binding: 99%.
It gave 100% for remaining binding (CDK3 (Homo sapiens, UniProt Q00526)).
The remaining binding was 90% (MAP4K4 (Homo sapiens, UniProt O95819)).
For ACVR1 (Homo sapiens, UniProt Q04771): remaining binding read 84%.

Study 3
Target: Interferon regulatory factor 7, full length, phosphomimetic (IRF7, Homo sapiens, UniProt Q92985, residues 1-503, S471D/S472D/S475D/S476D/S477D/S483D/S484D/S487D)
Technique: protein-binding microarray
Molecule type: double-stranded DNA, one strand shown
Sample: in vitro
Concentration: 2200 nM top
Setting: 60-bp whole probe
Added: salmon DNA 0.4 mg/ml
Reference: random background probes
Reading: higher = stronger binding
Constant ends, left off below: GCCTAGCAC … GTCTTGATTCGCTTGACGCTGCTG
Construct (chain): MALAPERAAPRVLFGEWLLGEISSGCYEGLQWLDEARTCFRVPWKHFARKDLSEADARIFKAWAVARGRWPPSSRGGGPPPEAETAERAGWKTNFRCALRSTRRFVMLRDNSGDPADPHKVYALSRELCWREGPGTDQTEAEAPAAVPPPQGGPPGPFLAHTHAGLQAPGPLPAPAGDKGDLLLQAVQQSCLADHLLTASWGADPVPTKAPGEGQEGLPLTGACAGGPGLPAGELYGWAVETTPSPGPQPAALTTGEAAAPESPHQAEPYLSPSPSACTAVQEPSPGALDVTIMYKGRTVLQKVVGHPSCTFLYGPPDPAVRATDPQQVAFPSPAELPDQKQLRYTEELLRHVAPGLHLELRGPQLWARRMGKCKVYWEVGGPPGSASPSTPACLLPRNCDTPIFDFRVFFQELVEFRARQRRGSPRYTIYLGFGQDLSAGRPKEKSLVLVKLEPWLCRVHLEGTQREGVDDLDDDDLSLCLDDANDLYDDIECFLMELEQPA
`TTAGGACTGGTTATCGGTTAGTGCTAG`: “fitted relative affinity” 0.494 z-score.
For `TTAGGTTTCCTTGCCCTTTAGTGCTAG`, “fitted relative affinity” read 1.34 z-score.
Under “fitted relative affinity”, `GACGGTTTCGTACTGGGGACGTGCTAG` is recorded as 3.73 z-score.
`TCATCTCTGGTCTTTGTACTGTGCTAG` — result for “fitted relative affinity”: 1.61 z-score.
Under “fitted relative affinity”, `TCATCTCCCCCATCTTGTACTGTGCTA` is recorded as 1.33 z-score.
For `TCAACTCTCTACATGGGACTGTGCTAG`, “fitted relative affinity” read 0.89 z-score.
`GCCGGACTGGACTTTCGGGACGTGCTA`: “fitted relative affinity” 2 z-score.
`GACGTTTTCCTTATCCTGACGTGCTAG` — result for “fitted relative affinity”: 3.43 z-score.

Single results of other studies
Target: Forkhead transcription factor HCM1, DNA-binding domain (HCM1, Saccharomyces cerevisiae, UniProt P25364, residues 41-213)
Technique: SELEX-seq
Molecule type: double-stranded DNA, one strand shown
Sample: in vitro
Concentration: not given
Setting: 7-bp core, flanks averaged
Reference: best-binding core
Reading: lower = stronger binding
Sequence (chain, as in one of the studies): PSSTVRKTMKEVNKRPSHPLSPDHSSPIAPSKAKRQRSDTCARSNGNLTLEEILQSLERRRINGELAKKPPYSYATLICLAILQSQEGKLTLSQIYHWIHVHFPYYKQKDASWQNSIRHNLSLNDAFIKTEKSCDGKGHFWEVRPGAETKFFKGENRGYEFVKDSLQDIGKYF
`ATAAATA` — result for “relative binding free energy”: 1.61 ddG/RT.
For `CAAAATA`, “relative binding free energy” read 2.07 ddG/RT.

For quick reference, copied from above (single results of other studies):
For `CAAAATA`, “relative binding free energy” read 2.07 ddG/RT.
`ATAAATA` — result for “relative binding free energy”: 1.61 ddG/RT.
